Measurements of several laboratories.
Numbered parts are unrelated; each lists some results of a single study.
Sequence of UniProt P49840 (whole entry, looked up): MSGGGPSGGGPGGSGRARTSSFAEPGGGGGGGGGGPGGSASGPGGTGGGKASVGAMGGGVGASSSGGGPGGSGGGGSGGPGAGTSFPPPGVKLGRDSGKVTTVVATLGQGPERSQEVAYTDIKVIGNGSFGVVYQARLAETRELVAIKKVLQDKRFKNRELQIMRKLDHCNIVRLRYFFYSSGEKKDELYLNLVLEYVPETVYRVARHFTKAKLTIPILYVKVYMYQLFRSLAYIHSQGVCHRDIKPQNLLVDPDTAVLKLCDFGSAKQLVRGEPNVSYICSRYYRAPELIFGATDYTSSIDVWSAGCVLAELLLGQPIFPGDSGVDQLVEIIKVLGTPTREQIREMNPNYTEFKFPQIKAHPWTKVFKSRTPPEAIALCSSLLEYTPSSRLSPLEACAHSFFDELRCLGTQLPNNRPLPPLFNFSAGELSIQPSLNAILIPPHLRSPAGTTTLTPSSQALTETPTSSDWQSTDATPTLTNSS
Sequence of UniProt Q13976 (whole entry, looked up): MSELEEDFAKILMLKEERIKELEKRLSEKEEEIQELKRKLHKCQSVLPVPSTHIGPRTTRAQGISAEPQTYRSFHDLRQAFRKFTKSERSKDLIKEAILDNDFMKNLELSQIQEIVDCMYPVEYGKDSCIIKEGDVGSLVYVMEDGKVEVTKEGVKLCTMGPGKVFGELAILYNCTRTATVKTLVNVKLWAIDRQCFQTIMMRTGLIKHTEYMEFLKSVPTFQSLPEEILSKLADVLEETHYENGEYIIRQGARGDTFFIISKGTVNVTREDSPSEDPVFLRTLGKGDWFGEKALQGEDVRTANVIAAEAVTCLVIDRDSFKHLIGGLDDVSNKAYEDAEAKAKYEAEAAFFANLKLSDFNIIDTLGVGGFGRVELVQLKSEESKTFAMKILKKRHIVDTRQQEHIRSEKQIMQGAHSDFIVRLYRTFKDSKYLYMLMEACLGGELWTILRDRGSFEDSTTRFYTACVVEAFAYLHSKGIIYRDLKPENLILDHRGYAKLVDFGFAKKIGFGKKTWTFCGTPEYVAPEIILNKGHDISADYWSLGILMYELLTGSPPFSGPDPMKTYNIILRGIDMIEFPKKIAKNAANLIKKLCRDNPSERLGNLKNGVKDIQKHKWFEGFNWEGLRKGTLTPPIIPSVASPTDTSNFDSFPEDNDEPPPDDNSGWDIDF
Sequence of UniProt Q15746 (whole entry, looked up): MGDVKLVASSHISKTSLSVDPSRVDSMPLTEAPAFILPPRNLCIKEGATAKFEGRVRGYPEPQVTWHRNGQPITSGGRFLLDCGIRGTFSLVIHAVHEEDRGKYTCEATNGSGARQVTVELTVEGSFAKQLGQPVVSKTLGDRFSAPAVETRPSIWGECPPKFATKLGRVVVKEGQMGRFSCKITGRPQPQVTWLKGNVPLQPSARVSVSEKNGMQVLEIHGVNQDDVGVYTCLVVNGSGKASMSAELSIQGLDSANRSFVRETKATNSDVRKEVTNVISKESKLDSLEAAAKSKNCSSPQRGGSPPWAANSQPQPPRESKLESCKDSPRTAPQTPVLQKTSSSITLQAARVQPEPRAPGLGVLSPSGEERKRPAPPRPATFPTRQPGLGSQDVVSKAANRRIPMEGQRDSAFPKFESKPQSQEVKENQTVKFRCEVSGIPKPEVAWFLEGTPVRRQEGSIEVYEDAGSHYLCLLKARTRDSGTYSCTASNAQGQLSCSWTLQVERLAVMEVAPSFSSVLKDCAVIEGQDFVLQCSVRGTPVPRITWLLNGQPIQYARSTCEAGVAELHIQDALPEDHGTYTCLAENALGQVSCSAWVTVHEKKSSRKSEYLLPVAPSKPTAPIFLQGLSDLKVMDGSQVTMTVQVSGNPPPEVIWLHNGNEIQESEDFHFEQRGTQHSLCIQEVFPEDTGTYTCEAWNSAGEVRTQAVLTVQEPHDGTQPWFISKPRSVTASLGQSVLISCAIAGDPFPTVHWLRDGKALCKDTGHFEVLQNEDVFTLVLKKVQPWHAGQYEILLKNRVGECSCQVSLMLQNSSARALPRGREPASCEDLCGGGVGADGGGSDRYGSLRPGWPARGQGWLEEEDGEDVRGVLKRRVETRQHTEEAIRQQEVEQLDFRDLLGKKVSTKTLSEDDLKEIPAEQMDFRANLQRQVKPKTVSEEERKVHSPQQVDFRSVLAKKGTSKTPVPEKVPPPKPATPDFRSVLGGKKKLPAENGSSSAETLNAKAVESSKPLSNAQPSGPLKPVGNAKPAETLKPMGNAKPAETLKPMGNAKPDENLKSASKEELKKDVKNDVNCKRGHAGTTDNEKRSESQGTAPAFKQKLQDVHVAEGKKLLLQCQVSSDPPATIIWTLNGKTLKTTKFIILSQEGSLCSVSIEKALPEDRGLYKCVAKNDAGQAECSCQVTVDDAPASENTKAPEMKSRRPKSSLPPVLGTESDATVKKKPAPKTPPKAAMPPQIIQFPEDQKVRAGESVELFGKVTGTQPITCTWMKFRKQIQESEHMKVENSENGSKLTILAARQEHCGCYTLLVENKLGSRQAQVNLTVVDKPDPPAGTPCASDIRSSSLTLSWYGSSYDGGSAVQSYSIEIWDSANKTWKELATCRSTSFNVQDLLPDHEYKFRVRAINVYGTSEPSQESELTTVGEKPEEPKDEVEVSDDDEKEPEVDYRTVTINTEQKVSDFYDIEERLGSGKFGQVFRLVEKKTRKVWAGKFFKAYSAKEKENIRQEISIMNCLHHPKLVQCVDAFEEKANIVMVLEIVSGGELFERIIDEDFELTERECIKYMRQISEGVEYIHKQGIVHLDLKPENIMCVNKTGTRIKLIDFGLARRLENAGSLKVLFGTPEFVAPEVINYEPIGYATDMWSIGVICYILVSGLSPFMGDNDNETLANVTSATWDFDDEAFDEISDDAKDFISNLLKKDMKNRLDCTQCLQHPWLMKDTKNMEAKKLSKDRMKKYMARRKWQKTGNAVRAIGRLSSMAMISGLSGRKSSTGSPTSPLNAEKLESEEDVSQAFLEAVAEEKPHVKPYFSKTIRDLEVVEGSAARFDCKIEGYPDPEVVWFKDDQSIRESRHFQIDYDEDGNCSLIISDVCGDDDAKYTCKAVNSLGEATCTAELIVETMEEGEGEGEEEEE
Sequence of UniProt Q07912 (whole entry, looked up): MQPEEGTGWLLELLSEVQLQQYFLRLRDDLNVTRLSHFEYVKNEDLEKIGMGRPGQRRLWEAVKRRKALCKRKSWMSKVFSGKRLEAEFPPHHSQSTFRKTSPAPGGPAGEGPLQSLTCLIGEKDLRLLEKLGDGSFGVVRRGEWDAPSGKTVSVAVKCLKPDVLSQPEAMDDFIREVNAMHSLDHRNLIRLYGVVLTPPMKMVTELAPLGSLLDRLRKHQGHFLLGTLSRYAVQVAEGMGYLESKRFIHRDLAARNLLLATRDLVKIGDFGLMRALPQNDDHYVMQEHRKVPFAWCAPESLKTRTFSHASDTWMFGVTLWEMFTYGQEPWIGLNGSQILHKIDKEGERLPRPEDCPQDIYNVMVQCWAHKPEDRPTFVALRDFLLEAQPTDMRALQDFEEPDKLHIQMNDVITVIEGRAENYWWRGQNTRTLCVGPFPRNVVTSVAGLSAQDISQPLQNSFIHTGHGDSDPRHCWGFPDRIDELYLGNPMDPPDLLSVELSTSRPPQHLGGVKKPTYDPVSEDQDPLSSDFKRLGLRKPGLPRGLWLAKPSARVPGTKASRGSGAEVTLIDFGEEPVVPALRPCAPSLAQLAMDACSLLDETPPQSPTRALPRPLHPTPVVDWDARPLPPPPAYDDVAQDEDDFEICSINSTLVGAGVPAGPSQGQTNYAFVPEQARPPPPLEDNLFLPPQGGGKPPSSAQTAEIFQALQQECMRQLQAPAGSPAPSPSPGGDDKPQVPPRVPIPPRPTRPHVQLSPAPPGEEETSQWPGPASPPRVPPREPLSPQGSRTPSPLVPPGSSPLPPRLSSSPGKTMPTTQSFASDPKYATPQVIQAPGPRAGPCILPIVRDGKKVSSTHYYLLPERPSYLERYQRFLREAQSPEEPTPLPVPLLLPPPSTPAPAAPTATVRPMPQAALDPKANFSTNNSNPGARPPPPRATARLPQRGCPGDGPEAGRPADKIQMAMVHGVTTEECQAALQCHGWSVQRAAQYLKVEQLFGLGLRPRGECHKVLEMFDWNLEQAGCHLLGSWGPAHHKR
Sequence of UniProt Q9P1W9 (whole entry, looked up): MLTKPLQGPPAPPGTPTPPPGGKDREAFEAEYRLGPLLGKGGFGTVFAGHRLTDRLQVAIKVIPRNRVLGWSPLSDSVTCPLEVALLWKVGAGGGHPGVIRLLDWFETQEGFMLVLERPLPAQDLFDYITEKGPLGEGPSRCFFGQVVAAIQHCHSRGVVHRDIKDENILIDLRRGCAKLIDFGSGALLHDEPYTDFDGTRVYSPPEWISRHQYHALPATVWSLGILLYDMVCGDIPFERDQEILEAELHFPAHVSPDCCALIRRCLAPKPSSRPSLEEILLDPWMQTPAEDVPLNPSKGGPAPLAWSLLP

Set 1 — action: agonist
Target: Beta-1 adrenergic receptor (ADRB1, Homo sapiens, UniProt P08588)
Sequence of UniProt P08588 (whole entry, looked up): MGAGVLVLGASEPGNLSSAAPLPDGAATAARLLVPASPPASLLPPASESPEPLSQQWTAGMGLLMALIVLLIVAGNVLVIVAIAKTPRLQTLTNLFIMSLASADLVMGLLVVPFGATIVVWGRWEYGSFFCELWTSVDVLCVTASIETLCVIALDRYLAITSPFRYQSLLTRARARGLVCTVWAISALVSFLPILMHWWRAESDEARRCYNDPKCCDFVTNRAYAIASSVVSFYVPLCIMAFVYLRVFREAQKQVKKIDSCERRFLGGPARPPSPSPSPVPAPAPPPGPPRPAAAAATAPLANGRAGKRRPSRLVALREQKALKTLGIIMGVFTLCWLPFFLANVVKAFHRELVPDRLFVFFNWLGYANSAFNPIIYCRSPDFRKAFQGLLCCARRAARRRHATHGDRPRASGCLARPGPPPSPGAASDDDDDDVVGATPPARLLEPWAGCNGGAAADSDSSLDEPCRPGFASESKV
The Emax of `OC(COc1ccccc1)CN1CCN(Cc2cnc3ccccc3c2)CC1` (stereo not drawn) is reported as 86.6%.
`Oc1ccc(CCNCCCCCCNCCc2ccccc2)cc1O` gave an Emax of 96.6%.
`CCCN(CCc1ccccc1)C1CCc2c(O)cccc2C1` (stereo not drawn) has an Emax of 68.6%.
`COc1ccccc1N1CCN(C2CC(=O)N(CCc3ccccc3)C2=O)CC1` (stereo not drawn) has an Emax of 29.1%.
With `COc1ccccc1N1CCN(C(=O)c2ccc3[nH]c4c(c3c2)CCCC4)CC1` the Emax was 31.1%.
The Emax of `COc1ccccc1N1CCN(CCCCNC(=O)c2ccc(-c3ccc(C(C)=O)cc3)cc2)CC1` is reported as 72.2%.
With `COc1cc(NC(=O)CCN2CCC(OC(=O)Nc3ccccc3-c3ccccc3)CC2)c(Cl)cc1CNC[C@H](O)c1ccc(O)c2[nH]c(=O)ccc12` the Emax was 91.5%.
With `CC(C)NC[C@H](O)COc1ccc(O)cc1` the Emax was 93.7%.

Set 2 — tested at: 5 µM
SMILES: O=C(Nc1cnn(-c2csc(C(=O)NC3COC3)c2)c1)Nc1c(F)cccc1Cl
BTK (Homo sapiens, UniProt Q06187); enzyme activity; relative to: untreated control — remaining activity: 89%.
It gave 98.3% for remaining activity (cGMP-dependent protein kinase 1, isoform beta (PRKG1, Homo sapiens, UniProt Q13976); kinase activity, kinase panel profiling).
The remaining activity was 105% (MAPK15 (Homo sapiens, UniProt Q8TD08); enzyme activity; relative to: untreated control).
The remaining activity was 74.3% (PKN3 (Homo sapiens, UniProt Q6P5Z2); enzyme activity, inhibitor).
For Cyclin-dependent kinase 1, with cyclin E (CDK1, Homo sapiens, UniProt P06493); enzyme activity; relative to: untreated control: remaining activity read 95%.
For MUSK (Homo sapiens, UniProt O15146); enzyme activity; relative to: untreated control: remaining activity read 86.2%.
MASTL (Homo sapiens, UniProt Q96GX5); enzyme activity; relative to: untreated control — remaining activity: 93.5%.
It gave 88.7% for remaining activity (TYK2 (Homo sapiens, UniProt P29597); enzyme activity; relative to: untreated control).
The remaining activity was 93.5% (GSK3A (Homo sapiens, UniProt P49840); enzyme activity; relative to: untreated control).
The remaining activity was 89.6% (TAOK1 (Homo sapiens, UniProt Q7L7X3); enzyme activity; relative to: untreated control).
For MYLK2 (Homo sapiens, UniProt Q9H1R3); enzyme activity; relative to: untreated control: remaining activity read 79.4%.
It gave 104% for remaining activity (ZAP70 (Homo sapiens, UniProt P43403); enzyme activity; relative to: untreated control).
It gave 96% for remaining activity (CSNK2A2 (Homo sapiens, UniProt P19784); enzyme activity; relative to: untreated control).
For PRKD1 (Homo sapiens, UniProt Q15139); enzyme activity; relative to: untreated control: remaining activity read 88.7%.
The remaining activity was 87.8% (Cyclin-dependent kinase 5, with p25 (CDK5, Homo sapiens, UniProt Q00535); enzyme activity; relative to: untreated control).
It gave 98.5% for remaining activity (FGFR4 (Homo sapiens, UniProt P22455); enzyme activity; relative to: untreated control).
The remaining activity was 92.8% (MYLK (Homo sapiens, UniProt Q15746); enzyme activity; relative to: untreated control).
For DYRK2 (Homo sapiens, UniProt Q92630); enzyme activity; relative to: untreated control: remaining activity read 92%.
For STK33 (Homo sapiens, UniProt Q9BYT3); enzyme activity; relative to: untreated control: remaining activity read 80.3%.
It gave 84.3% for remaining activity (Cell division cycle 7-related protein kinase, with DBF4 (CDC7, Homo sapiens, UniProt O00311); kinase activity, kinase panel profiling).

Set 3 — technique: competition with immobilised ligand; tested at: 1 µM
SMILES: CCCOc1ccc([C@@H]2[C@@H](C(=O)O)[C@H](c3ccc4c(c3)OCO4)CN2CC(=O)Nc2c(CC)cccc2CC)cc1
PIK3CD (Homo sapiens, UniProt O00329); cell-free assay — remaining binding: 90%.
It gave 94% for remaining binding (WNK3 (Homo sapiens, UniProt Q9BYP7); cell-free assay).
It gave 97% for remaining binding (PRKG1 (Homo sapiens, UniProt Q13976); cell-free assay).
It gave 97% for remaining binding (PRKCE (Homo sapiens, UniProt Q02156); cell-free assay).
BMPR1A (Homo sapiens, UniProt P36894); binding — remaining binding: 89%.
It gave 84% for remaining binding (LRRK2 (Homo sapiens, UniProt Q5S007, G2019S); cell-free assay).
STK16 (Homo sapiens, UniProt O75716); cell-free assay — remaining binding: 87%.
CLK3 (Homo sapiens, UniProt P49761); cell-free assay — remaining binding: 93%.
For CAMK4 (Homo sapiens, UniProt Q16566); cell-free assay: remaining binding read 96%.
CAMK1G (Homo sapiens, UniProt Q96NX5); cell-free assay — remaining binding: 89%.
For DCLK3 (Homo sapiens, UniProt Q9C098); cell-free assay: remaining binding read 100%.
It gave 90% for remaining binding (TNK2 (Homo sapiens, UniProt Q07912); cell-free assay).
The remaining binding was 88% (Tyrosine-protein kinase JAK1, JH2 (JAK1, Homo sapiens, UniProt P23458); cell-free assay).
It gave 89% for remaining binding (MAP2K2 (Homo sapiens, UniProt P36507); cell-free assay).
The remaining binding was 96% (BRAF (Homo sapiens, UniProt P15056); cell-free assay).

Set 4 — read-out: enzyme activity; action: inhibitor; tested at: 0.5 µM; relative to: control
Structure (SMILES): COc1ccc2c(c1)c(C1=C(c3c[nH]c4ccccc34)C(=O)NC1=O)cn2CCCN(C)C
For NUAK1 (Homo sapiens, UniProt O60285): remaining activity read 32.2%.
For SRPK3 (Homo sapiens, UniProt Q9UPE1): remaining activity read 89.5%.
The remaining activity was 88.8% (EPHA7 (Homo sapiens, UniProt Q15375)).
For PIM2 (Homo sapiens, UniProt Q9P1W9): remaining activity read 90.5%.
It gave 90.3% for remaining activity (Aurora kinase C (AURKC, Homo sapiens, UniProt Q9UQB9)).
For GSK3A (Homo sapiens, UniProt P49840): remaining activity read 14%.
For RPS6KA1 (Homo sapiens, UniProt Q15418): remaining activity read 16%.
It gave 19.7% for remaining activity (RPS6KB1 (Homo sapiens, UniProt P23443)).
The remaining activity was 66.9% (MYLK (Homo sapiens, UniProt Q15746)).
It gave 54% for remaining activity (PRKCG (Homo sapiens, UniProt P05129)).
The remaining activity was 92.8% (CSF1R (Homo sapiens, UniProt P07333)).

Excerpt of the above (set 1):
With `COc1cc(NC(=O)CCN2CCC(OC(=O)Nc3ccccc3-c3ccccc3)CC2)c(Cl)cc1CNC[C@H](O)c1ccc(O)c2[nH]c(=O)ccc12` the Emax was 91.5%.
With `COc1ccccc1N1CCN(C(=O)c2ccc3[nH]c4c(c3c2)CCCC4)CC1` the Emax was 31.1%.
`Oc1ccc(CCNCCCCCCNCCc2ccccc2)cc1O` gave an Emax of 96.6%.
The Emax of `OC(COc1ccccc1)CN1CCN(Cc2cnc3ccccc3c2)CC1` (stereo not drawn) is reported as 86.6%.
With `CC(C)NC[C@H](O)COc1ccc(O)cc1` the Emax was 93.7%.
`CCCN(CCc1ccccc1)C1CCc2c(O)cccc2C1` (stereo not drawn) has an Emax of 68.6%.
